Measured values gathered from unrelated publications.
Organism: Klebsiella pneumoniae

SMILES	assay	test system	conditions	MIC
CC1(C)C(NC(=O)C(=NOCC(=O)N2CC3CCCC3C2C(=O)O)c2csc(N)n2)C(=O)N1OS(=O)(=O)O (centres unmarked)	agar dilution	2146, NDM-1	–	> 64 mg/L
N=C(N)NCCC[C@@H]1NC(=O)[C@H](CCCNC(=N)N)NC(=O)[C@@H](CCCNC(=N)N)NC(=O)[C@H](C(c2ccccc2)c2ccccc2)NC(=O)[C@H](C(c2ccccc2)c2ccccc2)NC(=O)[C@H](C(c2ccccc2)c2ccccc2)NC(=O)[C@H](CCCNC(=N)N)NC1=O	–	1188718, multidrug-resistant	–	> 64 mg/L
CCn1ccn(CC)c1=[Se]	broth microdilution	carbapenem-resistant BAA-1705	24 h	> 40 µM
N=C(N)NCCC[C@@H]1NC(=O)[C@H](CCCNC(=N)N)NC(=O)[C@@H](CCCNC(=N)N)NC(=O)[C@@H](CCCNC(=N)N)NC(=O)[C@@H](C(c2ccccc2)c2ccccc2)NC(=O)[C@@H](Cc2c[nH]c3ccccc23)NC(=O)[C@@H](C(c2ccccc2)c2ccccc2)NC1=O	–	ATCC 700603, ESBL SHV-18	–	> 64 mg/L
CC1(C)[C@H](NC(=O)/C(=N\OCCN)c2csc(N)n2)C(=O)N1OS(=O)(=O)O	agar dilution	09-20, NDM-1	–	8 mg/L
CCCCCCCC(=O)N[C@@H](CCN)C(=O)N[C@H](C(=O)N[C@@H](CCN)C(=O)N[C@H]1CCNC(=O)[C@H]([C@@H](C)O)NC(=O)[C@H](CCN)NC(=O)[C@H](CCN)NC(=O)[C@H](CC(C)C)NC(=O)[C@@H](Cc2ccc(Cl)cc2)NC(=O)[C@H](CCN)NC1=O)[C@@H](C)O	broth microdilution	ATCC 13883, colistin-susceptible	–	0.5 to 1 mg/L
C=CCO/N=C(\C(=O)N[C@@H]1C(=O)N(OS(=O)(=O)O)C1(C)C)c1csc(N)n1	agar dilution	09-20, NDM-1	–	1 mg/L
CC(=O)N[C@H](Cc1ccc(C(F)(F)F)cc1)C(=O)N[C@@H](CCN)C(=O)N[C@H](C(=O)N[C@@H](CCN)C(=O)N[C@H]1CCNC(=O)[C@H]([C@@H](C)O)NC(=O)[C@H](CCN)NC(=O)[C@H](CCN)NC(=O)[C@H](CC(C)C)NC(=O)[C@@H](Cc2ccccc2)NC(=O)[C@H](CCN)NC1=O)[C@@H](C)O	broth microdilution	ATCC 13883, colistin-susceptible	–	8 to 16 mg/L
COc1ccc2ccc(O)c(/C=N/[C@H]3CCCC[C@H]3/N=C/c3cc(C(C)(C)C)ccc3O)c2c1	bacterial growth, broth microdilution	carbapenem-resistant clinical isolate	–	> 40 µM
CN[C@@H]1[C@H](O)[C@H](NC)[C@H]2O[C@]3(O)[C@H](O[C@@H]2[C@H]1O)O[C@H](C)C[C@H]3NC(=O)CNC(C)(C)C	microbial growth, broth dilution	ATCC33495	–	200 mg/L
COc1ccc2ccc(O)c(/C=N/[C@H]3CCCC[C@H]3/N=C/c3c(C)cccc3O)c2c1	bacterial growth, broth microdilution	carbapenem-resistant	–	> 40 µM
C[C@H](N)[C@@H](CCCCCCCCCCCCCCC(=O)CCCCCCC[C@@H](O)[C@@H](C)N)O[C@@H]1O[C@H](CO)[C@H](O)[C@H](O)[C@H]1O	resazurin	–	–	7.73 µM
CC1(C)[C@H](NC(=O)/C(=N\OC2(C(=O)O)CCCCC2)c2csc(N)n2)C(=O)N1OS(=O)(=O)O	agar dilution	2146, NDM-1	–	8 mg/L
CC[C@H](C)[C@H](NC(=O)[C@@H](CCCNC(=N)N)NC(=O)[C@H](CCCNC(=N)N)NC(=O)[C@@H]1CCCN1C(=O)[C@@H]1CCCN1C(=O)[C@H](CCCNC(=N)N)NC(=O)[C@@H]1CCCN1C(=O)[C@H](CCCNC(=N)N)NC(=O)[C@@H]1CCCN1C(=O)[C@H](CC(C)C)NC(=O)[C@H](Cc1ccc(O)cc1)NC(=O)[C@H](Cc1c[nH]cn1)NC(=O)[C@@H]1CCCN1C(=O)[C@H](CCCCN)NC(=O)[C@H](CC(=O)O)NC(=O)[C@@H](N)C(C)C)C(=O)N[C@@H](Cc1ccc(O)cc1)C(=O)N[C@@H](CC(N)=O)C(=O)N[C@H](CCCNC(=N)N)C(N)=O	broth microdilution	DSM 681	18 h, 37 °C, 25% MHB2	8 mg/L
CCCCCCCC(=O)N[C@@H](CCN)C(=O)N[C@H](C(=O)N[C@@H](CCN)C(=O)N[C@H]1CCNC(=O)[C@H]([C@@H](C)O)NC(=O)[C@H](CCN)NC(=O)[C@H](CCN)NC(=O)[C@H](Cc2ccccc2)NC(=O)[C@@H](CCCc2ccccc2)NC(=O)[C@H](CCN)NC1=O)[C@@H](C)O	broth microdilution	ATCC 13883, colistin-susceptible	–	2 to 4 mg/L
CC[C@H](C)[C@H](NC(=O)[C@@H](CCCNC(=N)N)NC(=O)[C@H](CCCNC(=N)N)NC(=O)[C@@H]1CCCN1C(=O)[C@@H]1CCCN1C(=O)[C@H](CCCNC(=N)N)NC(=O)[C@@H]1CCCN1C(=O)[C@H](CCCNC(=N)N)NC(=O)[C@@H]1CCCN1C(=O)[C@H](CC(C)C)NC(=O)[C@H](Cc1ccc(O)cc1)NC(=O)[C@H](Cc1ccccc1)NC(=O)[C@@H]1CCCN1C(=O)[C@H](CCCCN)NC(=O)[C@H](CC(=O)O)NC(=O)[C@@H](N)C(C)C)C(=O)N[C@@H](Cc1ccc(O)cc1)C(=O)N[C@@H](CC(N)=O)C(=O)N[C@H](CCCNC(=N)N)C(N)=O	broth microdilution	DSM 681	18 h, 37 °C, 25% MHB2	8 mg/L
CC[C@H](C)[C@H](N)C(=O)N[C@@H](CCCNC(=N)N)C(=O)N[C@H](C(=O)N[C@@H](Cc1c[nH]c2ccccc12)C(=O)N[C@@H](Cc1ccccc1)C(=O)N[C@H](C(=O)N[C@@H](CCCCN)C(=O)N[C@H](C(=O)N[C@@H](CCCNC(=N)N)C(=O)N[C@@H](CCCCN)C(=O)N[C@@H](CCSC)C(=O)N[C@@H](CCCCN)C(=O)N[C@@H](C)C(=O)N[C@H](C(=O)N[C@@H](Cc1ccc(O)cc1)C(=O)N[C@@H](Cc1c[nH]cn1)C(N)=O)[C@@H](C)CC)C(C)C)[C@@H](C)CC)C(C)C	broth dilution	ATCC 700603	–	100 µM
CC[C@H](C)[C@H](NC(=O)[C@@H](CCCNC(=N)N)NC(=O)[C@H](CCCNC(=N)N)NC(=O)[C@H](CC(=O)O)NC(=O)[C@H](Cc1c[nH]c2ccccc12)NC(=O)[C@H](CCCNC(=N)N)NC(=O)[C@@H]1CCCN1C(=O)[C@H](CCCNC(=N)N)NC(=O)[C@@H]1CCCN1C(=O)[C@H](CC(C)C)NC(=O)[C@H](Cc1ccc(O)cc1)NC(=O)[C@@H]1CCCN1C(=O)[C@@H]1CCCN1C(=O)[C@H](CCCCN)NC(=O)[C@H](CC(=O)O)NC(=O)[C@@H](N)C(C)C)C(=O)N[C@@H](Cc1ccc(O)cc1)C(=O)N[C@@H](CC(N)=O)C(=O)N[C@H](CCCNC(=N)N)C(N)=O	broth microdilution	DSM 681	18 h, 37 °C, 25% MHB2	4 mg/L
CC[C@H](C)[C@H](NC(=O)[C@H](CCCCN)NC(=O)[C@@H](NC(=O)[C@@H](NC(=O)[C@H](CC(C)C)NC(=O)[C@H](CCCNC(=N)N)NC(=O)[C@@H](NC(=O)[C@H](CC(C)C)NC(=O)[C@H](CCCNC(=N)N)NC(=O)CNC(=O)[C@H](Cc1ccccc1)NC(=O)[C@@H](N)CCCNC(=N)N)[C@@H](C)CC)[C@@H](C)CC)C(C)C)C(=O)N[C@@H](C)C(=O)N[C@@H](CCCNC(=N)N)C(=O)N[C@@H](CCCNC(=N)N)C(=O)N[C@@H](C)C(=O)N[C@@H](Cc1c[nH]cn1)C(=O)N[C@@H](CCCNC(=N)N)C(=O)N[C@@H](C)C(=O)N[C@@H](CCCNC(=N)N)C(=O)N[C@@H](CO)C(=O)N[C@@H](C)C(=O)N[C@H](C(=O)N[C@@H](CCCCN)C(=O)N[C@@H](C)C(=O)N[C@@H](C)C(=O)N[C@@H](CO)C(=O)N[C@@H](CC(N)=O)C(=O)N[C@H](C(=O)N[C@@H](C)C(=O)N[C@@H](C)C(=O)N[C@@H](CC(C)C)C(=O)N[C@@H](C)C(=O)N[C@@H](Cc1c[nH]cn1)C(=O)NCC(=O)N[C@@H](C)C(N)=O)C(C)C)C(C)C	bacterial growth, broth microdilution	cation-adjusted Mueller Hinton broth	18 h, 37 °C	≤ 0.064 µM
CC[C@H](C)[C@H](NC(=O)[C@@H](CCCNC(=N)N)NC(=O)[C@H](CCCNC(=N)N)NC(=O)[C@@H]1CCCN1C(=O)[C@@H]1CCCN1C(=O)[C@H](CCCNC(=N)N)NC(=O)[C@@H]1CCCN1C(=O)[C@H](CCCNC(=N)N)NC(=O)[C@@H]1CCCN1C(=O)[C@H](CC(C)C)NC(=O)[C@H](Cc1ccc(O)c([N+](=O)[O-])c1)NC(=O)[C@@H]1CCCN1C(=O)[C@@H]1CCCN1C(=O)[C@H](CCCCN)NC(=O)[C@H](CC(=O)O)NC(=O)[C@@H](N)C(C)C)C(=O)N[C@@H](Cc1ccc(O)cc1)C(=O)N[C@@H](CC(N)=O)C(=O)N[C@H](CCCNC(=N)N)C(N)=O	broth microdilution	DSM 681	18 h, 37 °C, 25% MHB2	4 mg/L
COc1ccc2ccc(O)c(/C=N/[C@H]3CCCC[C@H]3/N=C/c3c(O)cccc3OC)c2c1	bacterial growth, broth microdilution	carbapenem-resistant clinical isolate	–	> 40 µM
C#CCOc1ccc(CN[C@@]2(C)C[C@H](O[C@H]3[C@H](Oc4c5cc6cc4Oc4ccc(cc4Cl)[C@@H](O)[C@@H](NC(=O)[C@@H](CC(C)C)NC)C(=O)N[C@@H](CC(N)=O)C(=O)N[C@H]6C(=O)N[C@H]4C(=O)N[C@H](C(=O)N[C@H](C(=O)O)c6cc(O)cc(O)c6-c6cc4ccc6O)[C@H](O)c4ccc(c(Cl)c4)O5)O[C@H](CO)[C@@H](O)[C@@H]3O)O[C@@H](C)[C@H]2O)cc1OC	broth microdilution	ATCC 13883, cation-adjusted Mueller-Hinton broth	18 to 20 h, 37 °C, 0.002% polysorbate 80	> 128 mg/L
CC[C@H](C)[C@H](NC(=O)[C@H](CCCNC(=N)N)NC(=O)[C@H](CC(=O)O)NC(=O)[C@H](CCCNC(=N)N)NC(=O)[C@H](CC(C)C)NC(=O)[C@H](CC(N)=O)NC(=O)[C@H](CCCNC(=N)N)NC(=O)[C@@H](N)Cc1ccccc1)C(=O)N[C@@H](CCCCN)C(=O)N[C@@H](CC(N)=O)C(=O)N[C@@H](CCCCN)C(=O)N[C@@H](Cc1ccccc1)C(=O)N[C@@H](CCC(=O)O)C(=O)N[C@@H](CC(N)=O)C(=O)N[C@@H](C)C(=O)N[C@@H](CC(C)C)C(=O)N[C@@H](CCCCN)C(=O)N[C@@H](CC(N)=O)C(=O)N[C@H](C(=O)N[C@H](C(=O)N[C@@H](CC(N)=O)C(=O)N[C@@H](CCCCN)C(=O)N[C@@H](CC(C)C)C(=O)N[C@@H](Cc1ccccc1)C(=O)N1CCC[C@H]1C(=O)O)[C@@H](C)CC)C(C)C	broth microdilution	ATCC 43816	–	20.7 µM

A few entries again:
SMILES	assay	test system	conditions	MIC
COc1ccc2ccc(O)c(/C=N/[C@H]3CCCC[C@H]3/N=C/c3cc(C(C)(C)C)ccc3O)c2c1	bacterial growth, broth microdilution	carbapenem-resistant clinical isolate	–	> 40 µM
